Published values collected from several papers.
Parts stem from different laboratories: compare values within a part only.

Block 1
Target: Ras GTPase-activating protein-binding protein 1, C-terminal RGG region (G3BP1, Homo sapiens, UniProt Q13283)
Sequence of UniProt Q13283 (whole entry, looked up): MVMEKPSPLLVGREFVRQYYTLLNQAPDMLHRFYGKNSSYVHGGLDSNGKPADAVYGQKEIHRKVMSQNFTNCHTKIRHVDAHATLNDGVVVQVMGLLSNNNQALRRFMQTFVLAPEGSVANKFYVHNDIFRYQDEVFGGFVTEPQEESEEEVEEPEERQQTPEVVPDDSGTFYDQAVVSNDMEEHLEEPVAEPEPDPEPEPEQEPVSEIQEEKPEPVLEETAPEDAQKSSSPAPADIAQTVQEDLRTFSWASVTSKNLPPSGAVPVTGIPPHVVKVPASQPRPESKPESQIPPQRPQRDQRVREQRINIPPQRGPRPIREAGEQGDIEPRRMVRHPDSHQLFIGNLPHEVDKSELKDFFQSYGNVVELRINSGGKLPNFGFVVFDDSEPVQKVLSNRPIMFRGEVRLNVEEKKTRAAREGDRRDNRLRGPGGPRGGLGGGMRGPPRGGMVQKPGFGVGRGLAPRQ
Technique: RNA Bind-n-Seq
Molecule type: RNA
Medium: in vitro
Tested at: 1 µM
Notes: whole 134-nt RNA, ends assumed
With: 150 mM KCl
Baseline: input library
Reading: higher = stronger binding
Quantity: log2 enrichment
All sequences stand within: GGGAGUUCUACAGUCCGACGAUC … UGGAAUUCUCGGGUGUCAAGG
GCAGGAAGUAAAAACAAAUGAAAAUGCUUCGGAUAGUGGCAGGGGUGGGGGUUGCUAAGGAAAGGGUGGGAUGGGAGUGGGUAAAGAGUU: 1.73
CAAGUCCUGUGCUACACAUCGUAUGUACCGAAUCGGGAAGGGGAAGGGGAAGGGGAAAGUAUUAUGUUACGCCGUUCGGAUCUGCACUUC: 2.94
CCUGUGCUACACAUCGUAUGUACCGAAUCGGCCCCCCGGGGCCCCCCGGGGCCCCCCGGGGAAAGUAUUAUGUUACGCCGUUCGGAUCUG: -2.23
UCCUGUGCUACACAUCGUAUGUACCGAAUCGGGGUGGGGAAAAAGGGGAAAAAAAGGGGAAAGUAUUAUGUUACGCCGUUCGGAUCUGCA: 0.86
UGUGAACUUGUAUGUGAAGAAUCUGGACGACUCCAUUGAUGACGACAAACUGAGGAAAGAGUUCUCUCCCUAUGGAGUAAUUACCAGUGC: -0.39
CACAGACAACACGAAACCACACAGACACAGAGGGAAGGGGUUGGGAUGGGGACAGGGUGCACAGCAGGGCGGGGUAGGACCCCAGCCCCU: -0.358
ACCAUGCAGGUGGGCAUCUUUGGGAAGUGGGGCAAGGGGGGGAUAGGGAGGGGGGUAACACGUUGGGAACAGGUGGUCCCAGGUCGUUUC: 2.38
UGGCCCUGGUGGCAUGCGGGGAGGAAGAGGUGGCCUCAUGGAUCGUGGUGGUCCCGGUGGAAUGUUCAGAGGUGGCCGUGGUGGAGACAA: 2.43
AAGUCCUGUGCUACACAUCGUAUGUACCGAAUCGGGUUUUUUUGGGUGGGAAAGGGAAAGUAUUAUGUUACGCCGUUCGGAUCUGCACUU: 0.713
CAAGUCCUGUGCUACACAUCGUAUGUACCGAAUCGGAAAGGGGAAAGGGGAAAGGGAAAGUAUUAUGUUACGCCGUUCGGAUCUGCACUU: -0.16
UCCUGUGCUACACAUCGUAUGUACCGAAUCGGGCCCCCCGGGGCCCCCCGGCCCCCCGGGAAAGUAUUAUGUUACGCCGUUCGGAUCUGC: -0.873

Block 2
Target: Centromere-binding protein 1, full length, His-tagged (CBF1, Saccharomyces cerevisiae, UniProt P17106, residues 1-351)
Sequence of UniProt P17106 (whole entry, looked up): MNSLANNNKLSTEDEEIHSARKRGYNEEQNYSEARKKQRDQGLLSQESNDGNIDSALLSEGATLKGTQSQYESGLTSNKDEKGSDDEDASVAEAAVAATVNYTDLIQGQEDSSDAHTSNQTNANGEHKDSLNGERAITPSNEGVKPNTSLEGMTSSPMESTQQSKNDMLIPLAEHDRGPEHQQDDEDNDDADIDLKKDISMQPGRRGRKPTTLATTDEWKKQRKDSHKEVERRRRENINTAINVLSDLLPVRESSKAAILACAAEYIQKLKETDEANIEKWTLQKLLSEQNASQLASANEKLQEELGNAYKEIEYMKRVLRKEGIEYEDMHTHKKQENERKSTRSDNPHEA
Technique: competition protein-binding microarray
Molecule type: double-stranded DNA, one strand shown
Medium: in vitro
Tested at: 2 µM
Notes: whole 60-bp probe, lowest competitor level
With: Pho4 competitor, 0.05 µM
Reading: higher = stronger binding
Quantity: fluorescence intensity
All sequences stand within: … GTCTTGATTCGCTTGACGCTGCTG
GTCTTGTCTCATTGTCACTATACTTTCCCCACTTCA: 83.5 a.u.
TGCGCAACAACTTTTCACGTGCCATTATGTCTAGAA: 1740 a.u.
CTTCAGTGTTTTTAGCACGTTTTAGAGCAGCAGGAT: 181 a.u.
ATCCTCCTTAGTGGGCATGTGCTCTAGGAATGCAGA: 166 a.u.
CATACCCAACCTTGCTAAGTGGGTGAAGATATTTGT: 68.7 a.u.
CGTCCTAGTGATTTTCACGTGTCCTCCATGAGGAAG: 1200 a.u.
CTAACGAAGGTTTTCCACGTGTTTTACAAGCCAAGT: 775 a.u.
TTAAATTCAAGTTACCTCGTGTTCCTAGTCATTGGC: 177 a.u.
TGGAAAGCTTGATGACATGTGATAGCACACCATGCT: 457 a.u.
AATATCCTCAACCTACACGTCTTCACCATCAGTACC: 77.4 a.u.
ATAGAAATGGGTAGCCTTGTGACGGTGGATAATTCT: 98.4 a.u.
AGTGGAACTAGTACCCACGTCAGCGGGCCTAGGCCC: 44.1 a.u.
CATACCCAACCTTGCATGGTGGGTGAAGATATTTGT: 74.5 a.u.
AAAGCGGTAATTTGTCACATTACTTCACATATCTAT: 118 a.u.
TCGGTTTCAAATTGTCATGCTCCGGAGTAATTGACT: 102 a.u.
CCTCCTCCAGTTGAACACATGCAAGGTCGCCCACCA: 111 a.u.

Block 3
Target: Prothrombin, mature alpha-thrombin (F2, Homo sapiens, UniProt P00734)
Technique: aptamer microarray, sandwich
Molecule type: DNA with 2'F-ANA
Medium: in vitro
Tested at: 200 nM
Notes: whole 15-mer aptamer, many near background
With: Cy3 exosite-II aptamer, 400 nM
Reading: higher = stronger binding
Quantity: mean fluorescence intensity
Sequence: GGTTGGTGTGGTTGG
2'F-ANA at 1 2 3 4 5 7 10 11 12 13 14: 56 a.u.
2'F-ANA at 3 7 8 9 10 11 15: 497 a.u.
2'F-ANA at 1 3 4 5 8 9 12 15: 137 a.u.
2'F-ANA at 3 4 7 14 15: 385 a.u.
2'F-ANA at 5 15: 79 a.u.
2'F-ANA at 1 6 9 10 11: 52.5 a.u.
2'F-ANA at 2 3 5 6 8 14: 50.5 a.u.
2'F-ANA at 2 4 5 10 13 14 15: 79.1 a.u.
2'F-ANA at 1 2 5 6 7 8 9 14: 50.9 a.u.
2'F-ANA at 3 7 8 10 14 15: 451 a.u.
2'F-ANA at 2 3 4 5 7 9 11 12: 183 a.u.
2'F-ANA at 1 2 6 7 8 9 10 11 14 15: 60.6 a.u.
2'F-ANA at 1 2 3 4 5 6 8 9 10 11 12 14 15: 54.3 a.u.
2'F-ANA at 1 2 3 4 7 8 9 10 11 12 14: 52.5 a.u.
2'F-ANA at 1 3 5 10 11 12 13: 48.8 a.u.
2'F-ANA at 1 7 9 11 13 14 15: 52 a.u.
2'F-ANA at 2 6 7 8 9 13 14: 122 a.u.

Block 4
Target: Interferon regulatory factor 5, full length, phosphomimetic (IRF5, Homo sapiens, UniProt Q13568-2, residues 1-514, K96S/S451D/S453D/S456D/S462D)
Technique: protein-binding microarray
Molecule type: double-stranded DNA, one strand shown
Medium: in vitro
Tested at: 250 nM
Notes: 60-bp whole probe
With: salmon DNA 0.4 mg/ml
Baseline: random background probes
Reading: higher = stronger binding
Quantity: log fluorescence
All sequences stand within: GCCTAGCAC … GTCTTGATTCGCTTGACGCTGCTG
GACGGAATGGGTTTCGGGACGTGCTAG: 2.85 z-score
TTAGGTTCTGGTTTCGGTTAGTGCTAG: 9.02 z-score
CTAGGACTGCTACTGCTTTAGTGCTAG: -0.52 z-score
GACGGACAGGGTCTCGGGACGTGCTAG: -0.837 z-score
GACGGTTTCGACTATCGGGAAGTGCTA: 7.48 z-score
GACGGTTTCGACTATCGAGACGTGCTA: 7.35 z-score
TTGGAACTGGGGTTTCGATTAGTGCTA: 5.43 z-score
TCATCTCTGCTTGTGTCACTGTGCTAG: 0.362 z-score
TTAGGTTACGGGTATCGGTTAGTGCTA: 3.2 z-score
GACGGTCTCGACTATCGGGACGTGCTA: 1.05 z-score
AACGGTATCGACTTTCGGGACGTGCTA: 7.07 z-score
GACGGTTTCGACACTGCGGACGTGCTA: 4.49 z-score
TTAGGACTGCTTTTCCTTTAGTGCTAG: 0.0507 z-score
TTAGGTCTCCGTCTCCTTTAGTGCTAG: -0.308 z-score
GACGATATCAGTTTGGAGACGTGCTAG: 1.22 z-score
TTAGGTTTCGCTTCCGGTTAGTGCTAG: 7.68 z-score
TTAGGTATCGCACTGGGTTAGTGCTAG: 0.598 z-score
GACAGACTGCTTTTCCTGACGTGCTAG: -0.0154 z-score
GACGGTCTCCTTATGCTGACGTGCTAG: -0.262 z-score
ATGACCTCACTGCCTGACACGTGCTAG: -0.253 z-score
GACGGTTCCGGTTTCGGGACGTGCTAG: 4.65 z-score
GACGGTTTCGGGTTTCGCGACGTGCTA: 7.52 z-score

Block 5
Target: Histone acetyltransferase KAT6A, winged helix 2, GST fusion (KAT6A, Homo sapiens, UniProt Q92794, residues 85-181)
Technique: protein binding microarray
Molecule type: double-stranded DNA, one strand shown
Medium: in vitro
Tested at: not given
Notes: 8-mer, flanks averaged, mean of 2 arrays, mostly near background
Baseline: not given
Reading: higher = stronger binding
Quantity: E-score
Construct (chain): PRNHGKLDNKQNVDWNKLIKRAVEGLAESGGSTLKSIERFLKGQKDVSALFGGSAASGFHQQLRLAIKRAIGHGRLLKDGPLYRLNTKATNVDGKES
CTTAACTA: -0.023
GTCGCTGA: 0.0697
CCCTAGAC: 0.00259
CCGACATA: -0.0805
AGTGCTAT: -0.00112
ACAGGAGG: -0.14
ATATGGGC: -0.0691
CAAGTCGG: -0.11
AAGCAACG: 0.145
GGCCGCCC: 0.0602
AGACCCAC: 0.00611
CCCAGATA: -0.248
AAAGCCTA: -0.0328
ATCGTGGC: 0.051
AGGGCTAC: -0.12
CCTGAATA: 0.0336
ATGCTGTC: 0.0433
CTATTTTA: -0.0981
CAATAAAC: 0.141
CTTACGGA: -0.178
GCAGTCGA: 0.0907
ATTGTTAA: -0.0671
ATCGTTGG: 0.00834
AGCCGATG: -0.0639
CTCCACCA: -0.0507

For quick reference, copied from above (block 1):
CAAGUCCUGUGCUACACAUCGUAUGUACCGAAUCGGGAAGGGGAAGGGGAAGGGGAAAGUAUUAUGUUACGCCGUUCGGAUCUGCACUUC: 2.94
UGGCCCUGGUGGCAUGCGGGGAGGAAGAGGUGGCCUCAUGGAUCGUGGUGGUCCCGGUGGAAUGUUCAGAGGUGGCCGUGGUGGAGACAA: 2.43
UGUGAACUUGUAUGUGAAGAAUCUGGACGACUCCAUUGAUGACGACAAACUGAGGAAAGAGUUCUCUCCCUAUGGAGUAAUUACCAGUGC: -0.39
UCCUGUGCUACACAUCGUAUGUACCGAAUCGGGCCCCCCGGGGCCCCCCGGCCCCCCGGGAAAGUAUUAUGUUACGCCGUUCGGAUCUGC: -0.873
AAGUCCUGUGCUACACAUCGUAUGUACCGAAUCGGGUUUUUUUGGGUGGGAAAGGGAAAGUAUUAUGUUACGCCGUUCGGAUCUGCACUU: 0.713
UCCUGUGCUACACAUCGUAUGUACCGAAUCGGGGUGGGGAAAAAGGGGAAAAAAAGGGGAAAGUAUUAUGUUACGCCGUUCGGAUCUGCA: 0.86
CACAGACAACACGAAACCACACAGACACAGAGGGAAGGGGUUGGGAUGGGGACAGGGUGCACAGCAGGGCGGGGUAGGACCCCAGCCCCU: -0.358
CAAGUCCUGUGCUACACAUCGUAUGUACCGAAUCGGAAAGGGGAAAGGGGAAAGGGAAAGUAUUAUGUUACGCCGUUCGGAUCUGCACUU: -0.16
